Values quoted from earlier work that unrelated publications cite.
± marks the error that the study gave.

Compound | cell line | effect on | technique | time | notes | added | IC50 [µM]
CC1=C2[O][Ru-]([Cl])[O+]=C2C=CN1CCCCCCN1C=CC2=[O+][Ru-]([Cl])[O]C2=C1C.Cc1ccc(C(C)C)cc1.Cc1ccc(C(C)C)cc1 | A2780 | – | MTT | – | – | – | 30 ± 6
CC1=C(CO)C(=O)O[C@@H]([C@@H](C)[C@H]2CC[C@H]3[C@@H]4C[C@H]5O[C@]56[C@@H](O)C=CC(=O)[C@]6(C)[C@H]4CC[C@]23C)C1 | Hep3B | cell growth | – | – | – | – | 0.13
CCC1=C(O)c2c(oc(-c3ccc(OC)c4ccccc34)cc2=O)C(CC)(CC)C1=O | KB | cell growth | SRB | – | – | – | 1.67
COc1ccccc1NC(=O)N[C@H](C(=O)Nc1ccc(C(=O)NO)cc1)c1ccccc1 | HeLa | cell viability | MTT | – | – | – | 17.2
CCC1=C(O)c2c(oc(-c3cc4ccccc4s3)cc2=O)C(CC)(CC)C1=O | HCT-8 | cell growth | SRB | – | – | – | 19
Oc1cccc(-c2cccc(O)n2)n1.[Cl-].[Cl-].[Ru+2].c1cnc2c(c1)c1c(c3cccnc32)OCCO1.c1cnc2c(c1)c1c(c3cccnc32)OCCO1 | MCF-10A | cell viability | – | – | dark | – | 58
CC(C)(C)C1=CC(=NNC(=O)c2ccncc2)C=C(C(C)(C)C)C1=O | HFF | cell viability | – | – | – | – | 28
CC1=C(C)C(=O)OC(C(C)(O)C2CCC3C4CC5OC56C(O)C=CC(=O)C6(C)C4CCC32C)C1 (stereo not shown) | bone marrow cells | – | – | – | – | – | 7.24
[Cl-].[Cl-].[Ru+2].c1ccc(-c2ccccn2)nc1.c1ccc(-c2ccccn2)nc1.c1cnc2c(c1)ccc1cccnc12 | B16-F10 | – | – | – | light irradiation | – | > 100
C/C(=N\Nc1ccccc1)c1ccc(NC(=O)c2cccnc2)cc1 | HCT-116 | cell growth | – | – | – | – | 3.08
COc1cc(/C=C/C(=O)NCCc2ccc(O)c(O)c2)ccc1O | RAW264.7 | nitric oxide production | – | 24 h | – | LPS 100 ng/mL | 15.1 ± 0.805
CCN(CC)c1ccc2c(c1)Oc1cc(N(CC)CC)ccc1C21c2ccccc2C(=O)N1N=Cc1ccnc(-c2cc(C)ccn2)c1.Cc1c(C)c(-c2ccc(-c3ccccc3)cc2)[c-](C)c1C.F[P-](F)(F)(F)(F)F.[Cl-].[Ir+3] | A549 cancer cells | – | – | – | – | – | 4.3 ± 0.2
COc1ccc(C(C#N)(CCCCCN2Cc3cc(OC)c(OC)cc3C2)Sc2ccc(C)cc2)cc1OC (stereo not shown) | S1B1-20 | – | – | – | – | – | 0.81
O=C1OCC2=C1C(c1ccccc1[N+](=O)[O-])C1=C(N2)C(=O)c2ccccc2C1=O (stereo not shown) | HepG2 cells | cell growth | – | – | – | – | 0.47 ± 0.01
N#CC1=C(N)Nc2c(ccc3[nH]c4ccccc4c23)C12C(=O)N(Cc1cn(Cc3ccc(C(F)(F)F)cc3)nn1)c1ccccc12 (stereo not shown) | HeLa | cell growth | – | – | – | – | 3.54
CCCCCCCCCCCCCCCCOC(=O)C1=C(C)NC(=O)NC1c1cccc(O)c1 (stereo not shown) | glioma cell lines | cell growth | – | – | – | – | 10
CC1=C(CO)C(=O)OC(C(C)C2CCC3C4CC5OC56C(O)C(OS(=O)(=O)O)CC(=O)C6(CO)C4CCC23C)C1 (stereo not shown) | Hs-578T | cell growth | – | – | – | – | 3.4
O=C1OCC2=C1C(c1cccc([N+](=O)[O-])c1)C1=C(N2)C(=O)c2ccccc2C1=O (stereo not shown) | HepG2 cells | cell growth | – | – | – | – | < 0.039
COc1cc(/C=N/N2C(=O)c3ccccc3NC2c2ccc(O)c(OC)c2)ccc1O (stereo not shown) | human renal tubule TH-1 | cytotoxicity | – | – | – | – | > 1000

Some of these lines once more:
Compound | cell line | effect on | technique | time | notes | added | IC50 [µM]
[Cl-].[Cl-].[Ru+2].c1ccc(-c2ccccn2)nc1.c1ccc(-c2ccccn2)nc1.c1cnc2c(c1)ccc1cccnc12 | B16-F10 | – | – | – | light irradiation | – | > 100
C/C(=N\Nc1ccccc1)c1ccc(NC(=O)c2cccnc2)cc1 | HCT-116 | cell growth | – | – | – | – | 3.08
COc1cc(/C=C/C(=O)NCCc2ccc(O)c(O)c2)ccc1O | RAW264.7 | nitric oxide production | – | 24 h | – | LPS 100 ng/mL | 15.1 ± 0.805
